Published values of several laboratories.
Lines come from different studies, so protocols differ. Several values in a cell are separate wells, animals, samples, runs or records. Numbers after ± are the reported error. Non-standard residues stand in square brackets, D forms with d. Square brackets hold non-standard residues; d marks the D form. Primed or numbered codes have the meaning given here. Ends that are not written are not given here. No end group written: not given here. * marks the point of attachment.
B1: DBI (Mus musculus, UniProt P31786); Cy5 label; sequence looked up; chain MSQAEFDKAAEEVKRLKTQPTDEEMLFIYSHFKQATVGDVNTDRPGLLDLKGKAKWDSWNKLKGTSKESAMKTYVEKVDELKKKYGI
B2: Nlgn2 43-612 (Rattus norvegicus, UniProt Q62888-1); sequence looked up; chain VVNTAYGRVRGVRRELNNEILGPVVQFLGVPYATPPLGARRFQPPEAPASWPGVRNATTLPPACPQNLHGALPAIMLPVWFTDNLEAAATYVQNQSEDCLYLNLYVPTEDGPLTKKRDEATLNPPDTDIRDSGKKPVMLFLHGGSYMEGTGNMFDGSVLAAYGNVIVATLNYRLGVLGFLSTGDQAAKGNYGLLDQIQALRWLSENIAHFGGDPERITIFGSGAGASCVNLLILSHHSEGLFQKAIAQSGTAISSWSVNYQPLKYTRLLAAKVGCDREDSTEAVECLRRKSSRELVDQDVQPARYHIAFGPVVDGDVVPDDPEILMQQGEFLNYDMLIGVNQGEGLKFVEDSAESEDGVSASAFDFTVSNFVDNLYGYPEGKDVLRETIKFMYTDWADRDNGEMRRKTLLALFTDHQWVAPAVATAKLHADYQSPVYFYTFYHHCQAEGRPEWADAAHGDELPYVFGVPMVGATDLFPCNFSKNDVMLSAVVMTYWTNFAKTGDPNQPVPQDTKFIHTKPNRFEEVVWSKFNSKEKQYLHIGLKPRVRDNYRANKVAFWLELVPHLHNLH
B3: FDX1 (Homo sapiens, UniProt P10109); Alexa Fluor 488 on cysteine; sequence looked up; chain SSSEDKITVHFINRDGETLTTKGKVGDSLLDVVVENNLDIDGFGACEGTLACSTCHLIFEDHIYEKLDAITDEENDMLDLAYGLTDRSRLGCQICLTKSMDNMTVRVPETVADARQSIDVGKTS
B4: CDH1 residues 1-108 (Homo sapiens); chain MDWVIPPISLPENEKGPFPKNLVQIKSNKDKEGKVFYSITGQGADTPPVGVFIIERETGWLKVTEPLDRERIATYTLFSHAVSSNGNAVEDPMEILITVTDQNDNKPEF
B5: FGA/FGB/FGG 20-644 (Homo sapiens); chain 1 ADSGEGDFLAEGGGVRGPRVVERHQSACKDSDWPFCSDEDWNYKCPSGCRMKGLIDEVNQDFTNRINKLKNSLFEYQKNNKDSHSLTTNIMEILRGDFSSANNRDNTYNRVSEDLRSRIEVLKRKVIEKVQHIQLLQKNVRAQLVDMKRLEVDIDIKIRSCRGSCSRALAREVDLKDYEDQQKQLEQVIAKDLLPSRDRQHLPLIKMKPVPDLVPGNFKSQLQKVPPEWKALTDMPQMRMELERPGGNEITRGGSTSYGTGSETESPRNPSSAGSWNSGSSGPGSTGNRNPGSSGTGGTATWKPGSSGPGSTGSWNSGSSGTGSTGNQNPGSPRPGSTGTWNPGSSERGSAGHWTSESSVSGSTGQWHSESGSFRPDSPGSGNARPNNPDWGTFEEVSGNVSPGTRREYHTEKLVTSKGDKELRTGKEKVTSGSTTTTRRSCSKTVTKTVIGPDGHKEVTKEVVTSEDGSDCPEAMDLGTLSGIGTLDGFRHRHPDEAAFFDTASTGKTFPGFFSPMLGEFVSETESRGSESGIFTNTKESSSHHPGIAEFPSRGKSSSYSKQFTSSTSYNRGDSTFESKSYKMADEAGSEADHEGTHSTKRGHAKSRPVRGIHTSPLGKPSLSP; chain 2 QGVNDNEEGFFSARGHRPLDKKREEAPSLRPAPPPISGGGYRARPAKAAATQKKVERKAPDAGGCLHADPDLGVLCPTGCQLQEALLQQERPIRNSVDELNNNVEAVSQTSSSSFQYMYLLKDLWQKRQKQVKDNENVVNEYSSELEKHQLYIDETVNSNIPTNLRVLRSILENLRSKIQKLESDVSAQMEYCRTPCTVSCNIPVVSGKECEEIIRKGGETSEMYLIQPDSSVKPYRVYCDMNTENGGWTVIQNRQDGSVDFGRKWDPYKQGFGNVATNTDGKNYCGLPGEYWLGNDKISQLTRMGPTELLIEMEDWKGDKVKAHYGGFTVQNEANKYQISVNKYRGTAGNALMDGASQLMGENRTMTIHNGMFFSTYDRDNDGWLTSDPRKQCSKEDGGGWWYNRCHAANPNGRYYWGGQYTWDMAKHGTDDGVVWMNWKGSWYSMRKMSMKIRPFFPQQ; chain 3 YVATRDNCCILDERFGSYCPTTCGIADFLSTYQTKVDKDLQSLEDILHQVENKTSEVKQLIKAIQLTYNPDESSKPNMIDAATLKSRKMLEEIMKYEASILTHDSSIRYLQEIYNSNNQKIVNLKEKVAQLEAQCQEPCKDTVQIHDITGKDCQDIANKGAKQSGLYFIKPLKANQQFLVYCEIDGSGNGWTVFQKRLDGSVDFKKNWIQYKEGFGHLSPTGTTEFWLGNEKIHLISTQSAIPYALRVELEDWNGRTSTADYAMFKVGPEADKYRLTYAYFAGGDAGDAFDGFDFGDDPSDKFFTSHNGMQFSTWDNDNDKFEGNCAEQDGSGWWMNKCHAGHLNGVYYQGGTYSKASTPNGYDNGIIWATWKTRWYSMKKTTMKIIPFNRLTIGEGQQHHLGGAKQAGDV
B6: POL30 (Saccharomyces cerevisiae, UniProt P15873); Cy3 label; sequence looked up; chain MLEAKFEEASLFKRIIDGFKDCVQLVNFQCKEDGIIAQAVDDSRVLLVSLEIGVEAFQEYRCDHPVTLGMDLTSLSKILRCGNNTDTLTLIADNTPDSIILLFEDTKKDRIAEYSLKLMDIDADFLKIEELQYDSTLSLPSSEFSKIVRDLSQLSDSINIMITKETIKFVADGDIGSGSVIIKPFVDMEHPETSIKLEMDQPVDLTFGAKYLLDIIKGSSLSDRVGIRLSSEAPALFQFDLKSGFLQFFLAPKFNDEE
B7: GPR155 538-658 (Homo sapiens, UniProt Q7Z3F1); sequence looked up; chain SLMCMNQTAQAGSYEGFDQSQSHKVVEPGNTAFEESPAPVNEPELFTSSIPETSCCSCSMGNGELHCPSIEPIANTSTSEPVIPSFEKNNHCVSRCNSQSCILAQEEEQYLQSGDQQLTRH
B8: adrenodoxin (Bos taurus, UniProt P00257); RED dye on amines; sequence looked up; chain SSSEDKITVHFINRDGETLTTKGKIGDSLLDVVVQNNLDIDGFGACEGTLACSTCHLIFEQHIFEKLEAITDEENDMLDLAYGLTDRSRLGCQICLTKAMDNMTVRVPDAVSDARESIDMGMNSSKIE
B9: SRPK1 (Homo sapiens, UniProt Q96SB4); chain MERKVLALQARKKRTKAKKDKAQRKSETQHRGSAPHSESDLPEQEEEILGSDDDEQEDPNDYCKGGYHLVKIGDLFNGRYHVIRKLGWGHFSTVWLSWDIQGKKFVAMKVVKSAEHYTETALDEIRLLKSVRNSDPNDPNREMVVQLLDDFKISGVNGTHICMVFEVLGHHLLKWIIKSNYQGLPLPCVKKIIQQVLQGLDYLHTKCRIIHTDIKPENILLSVNEQYIRRLAAEATEWQRSGAPPPSGSAVSTAPQPKPADKMSKNKKKKLKKKQKRQAELLEKRMQEIEEMEKESGPGQKRPNKQEESESPVERPLKENPPNKMTQEKLEESSTIGQDQTLMERDTEGGAAEINCNGVIEVINYTQNSNNETLRHKEDLHNANDCDVQNLNQESSFLSSQNGDSSTSQETDSCTPITSEVSDTMVCQSSSTVGQSFSEQHISQLQESIRAEIPCEDEQEQEHNGPLDNKGKSTAGNFLVNPLEPKNAEKLKVKIADLGNACWVHKHFTEDIQTRQYRSLEVLIGSGYNTPADIWSTACMAFELATGDYLFEPHSGEEYTRDEDHIALIIELLGKVPRKLIVAGKYSKEFFTKKGDLKHITKLKPWGLFEVLVEKYEWSQEEAAGFTDFLLPMLELIPEKRATAAECLRHPWLNS
UniProt Q04049, sequence (whole entry, looked up): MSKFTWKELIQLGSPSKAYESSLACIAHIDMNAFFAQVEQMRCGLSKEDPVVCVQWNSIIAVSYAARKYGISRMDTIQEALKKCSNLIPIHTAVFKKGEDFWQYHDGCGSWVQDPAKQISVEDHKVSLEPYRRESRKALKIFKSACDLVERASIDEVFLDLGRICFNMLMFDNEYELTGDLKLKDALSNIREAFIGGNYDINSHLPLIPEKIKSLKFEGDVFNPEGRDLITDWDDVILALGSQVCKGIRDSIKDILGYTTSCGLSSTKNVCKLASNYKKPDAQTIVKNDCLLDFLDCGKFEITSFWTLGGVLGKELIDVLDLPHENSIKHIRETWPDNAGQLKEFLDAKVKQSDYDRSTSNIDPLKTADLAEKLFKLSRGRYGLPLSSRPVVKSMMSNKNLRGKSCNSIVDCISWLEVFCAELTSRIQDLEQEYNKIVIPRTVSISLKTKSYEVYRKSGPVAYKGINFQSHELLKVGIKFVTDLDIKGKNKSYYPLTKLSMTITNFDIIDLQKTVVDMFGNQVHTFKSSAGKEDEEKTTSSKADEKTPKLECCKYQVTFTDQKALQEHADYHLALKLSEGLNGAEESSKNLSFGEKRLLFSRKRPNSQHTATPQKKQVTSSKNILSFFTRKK
UniProt Q96E93, sequence (whole entry, looked up): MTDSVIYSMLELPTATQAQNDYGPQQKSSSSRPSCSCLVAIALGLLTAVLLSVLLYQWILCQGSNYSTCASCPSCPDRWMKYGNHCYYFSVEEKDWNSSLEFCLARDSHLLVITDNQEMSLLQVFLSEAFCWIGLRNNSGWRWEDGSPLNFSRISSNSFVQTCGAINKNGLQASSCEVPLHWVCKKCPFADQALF
UniProt P31749, sequence (whole entry, unmodified, looked up): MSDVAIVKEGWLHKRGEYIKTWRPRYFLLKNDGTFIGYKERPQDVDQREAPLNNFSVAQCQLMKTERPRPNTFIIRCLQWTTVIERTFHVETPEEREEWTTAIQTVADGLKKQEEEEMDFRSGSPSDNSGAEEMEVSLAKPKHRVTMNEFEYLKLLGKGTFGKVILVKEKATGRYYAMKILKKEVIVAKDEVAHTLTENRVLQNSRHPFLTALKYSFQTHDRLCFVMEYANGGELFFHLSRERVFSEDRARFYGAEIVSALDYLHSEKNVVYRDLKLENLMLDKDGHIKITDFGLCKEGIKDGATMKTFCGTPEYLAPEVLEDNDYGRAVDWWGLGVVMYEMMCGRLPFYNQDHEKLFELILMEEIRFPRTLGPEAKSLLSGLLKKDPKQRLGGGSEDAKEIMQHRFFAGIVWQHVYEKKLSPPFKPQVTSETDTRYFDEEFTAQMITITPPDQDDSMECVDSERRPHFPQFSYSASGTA
UniProt P06400, sequence (whole entry, unmodified, looked up): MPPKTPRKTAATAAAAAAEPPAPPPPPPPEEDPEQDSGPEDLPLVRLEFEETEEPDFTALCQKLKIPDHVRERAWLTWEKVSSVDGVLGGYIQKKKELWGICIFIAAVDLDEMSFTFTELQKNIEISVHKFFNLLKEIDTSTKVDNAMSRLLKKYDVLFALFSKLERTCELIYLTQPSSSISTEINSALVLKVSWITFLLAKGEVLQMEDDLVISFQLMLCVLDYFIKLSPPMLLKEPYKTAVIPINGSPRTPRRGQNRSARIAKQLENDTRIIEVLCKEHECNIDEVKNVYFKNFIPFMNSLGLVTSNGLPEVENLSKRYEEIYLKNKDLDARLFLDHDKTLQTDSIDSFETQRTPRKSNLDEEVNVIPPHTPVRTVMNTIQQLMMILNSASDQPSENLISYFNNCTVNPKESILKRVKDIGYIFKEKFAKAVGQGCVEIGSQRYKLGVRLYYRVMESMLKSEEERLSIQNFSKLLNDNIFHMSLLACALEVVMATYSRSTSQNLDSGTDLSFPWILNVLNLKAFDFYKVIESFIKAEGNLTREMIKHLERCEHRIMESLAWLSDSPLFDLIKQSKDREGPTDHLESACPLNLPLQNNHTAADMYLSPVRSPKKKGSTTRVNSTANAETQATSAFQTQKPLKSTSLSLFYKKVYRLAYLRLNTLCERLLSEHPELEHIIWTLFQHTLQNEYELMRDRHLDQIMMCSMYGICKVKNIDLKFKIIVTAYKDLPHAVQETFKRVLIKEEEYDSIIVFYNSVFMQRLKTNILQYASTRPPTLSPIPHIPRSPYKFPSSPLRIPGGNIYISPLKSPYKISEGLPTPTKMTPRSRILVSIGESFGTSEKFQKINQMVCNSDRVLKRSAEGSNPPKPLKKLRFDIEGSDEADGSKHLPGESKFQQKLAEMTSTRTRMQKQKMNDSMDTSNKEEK
UniProt P32198, sequence (whole entry, looked up): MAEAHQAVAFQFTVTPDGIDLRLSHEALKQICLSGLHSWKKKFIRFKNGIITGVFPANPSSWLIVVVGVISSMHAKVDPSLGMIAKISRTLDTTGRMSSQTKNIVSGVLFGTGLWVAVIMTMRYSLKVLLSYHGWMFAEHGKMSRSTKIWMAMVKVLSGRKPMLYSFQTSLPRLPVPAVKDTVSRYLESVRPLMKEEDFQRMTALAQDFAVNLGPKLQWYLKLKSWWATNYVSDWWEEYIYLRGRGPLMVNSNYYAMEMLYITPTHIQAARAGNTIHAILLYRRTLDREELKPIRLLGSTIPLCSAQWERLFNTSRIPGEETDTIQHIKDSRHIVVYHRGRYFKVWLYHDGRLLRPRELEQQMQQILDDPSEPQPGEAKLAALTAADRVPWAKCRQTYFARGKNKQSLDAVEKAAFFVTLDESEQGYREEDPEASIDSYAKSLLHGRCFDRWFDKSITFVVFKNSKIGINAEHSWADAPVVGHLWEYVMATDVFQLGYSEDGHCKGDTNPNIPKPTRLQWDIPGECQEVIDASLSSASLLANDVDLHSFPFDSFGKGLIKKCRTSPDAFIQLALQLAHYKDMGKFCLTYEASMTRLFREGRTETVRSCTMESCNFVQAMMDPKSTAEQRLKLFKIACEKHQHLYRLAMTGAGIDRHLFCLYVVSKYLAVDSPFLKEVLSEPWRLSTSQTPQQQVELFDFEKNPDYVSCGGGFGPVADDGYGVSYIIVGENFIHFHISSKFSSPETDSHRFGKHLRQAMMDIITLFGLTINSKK
UniProt Q07955, sequence (whole entry, looked up): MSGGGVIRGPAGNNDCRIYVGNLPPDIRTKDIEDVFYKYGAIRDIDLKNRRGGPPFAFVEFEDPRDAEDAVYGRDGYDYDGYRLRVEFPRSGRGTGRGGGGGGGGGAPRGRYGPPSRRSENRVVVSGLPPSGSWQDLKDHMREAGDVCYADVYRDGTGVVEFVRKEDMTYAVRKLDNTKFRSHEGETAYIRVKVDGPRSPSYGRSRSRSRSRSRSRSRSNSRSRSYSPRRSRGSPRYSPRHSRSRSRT
UniProt P54760, sequence (whole entry, looked up): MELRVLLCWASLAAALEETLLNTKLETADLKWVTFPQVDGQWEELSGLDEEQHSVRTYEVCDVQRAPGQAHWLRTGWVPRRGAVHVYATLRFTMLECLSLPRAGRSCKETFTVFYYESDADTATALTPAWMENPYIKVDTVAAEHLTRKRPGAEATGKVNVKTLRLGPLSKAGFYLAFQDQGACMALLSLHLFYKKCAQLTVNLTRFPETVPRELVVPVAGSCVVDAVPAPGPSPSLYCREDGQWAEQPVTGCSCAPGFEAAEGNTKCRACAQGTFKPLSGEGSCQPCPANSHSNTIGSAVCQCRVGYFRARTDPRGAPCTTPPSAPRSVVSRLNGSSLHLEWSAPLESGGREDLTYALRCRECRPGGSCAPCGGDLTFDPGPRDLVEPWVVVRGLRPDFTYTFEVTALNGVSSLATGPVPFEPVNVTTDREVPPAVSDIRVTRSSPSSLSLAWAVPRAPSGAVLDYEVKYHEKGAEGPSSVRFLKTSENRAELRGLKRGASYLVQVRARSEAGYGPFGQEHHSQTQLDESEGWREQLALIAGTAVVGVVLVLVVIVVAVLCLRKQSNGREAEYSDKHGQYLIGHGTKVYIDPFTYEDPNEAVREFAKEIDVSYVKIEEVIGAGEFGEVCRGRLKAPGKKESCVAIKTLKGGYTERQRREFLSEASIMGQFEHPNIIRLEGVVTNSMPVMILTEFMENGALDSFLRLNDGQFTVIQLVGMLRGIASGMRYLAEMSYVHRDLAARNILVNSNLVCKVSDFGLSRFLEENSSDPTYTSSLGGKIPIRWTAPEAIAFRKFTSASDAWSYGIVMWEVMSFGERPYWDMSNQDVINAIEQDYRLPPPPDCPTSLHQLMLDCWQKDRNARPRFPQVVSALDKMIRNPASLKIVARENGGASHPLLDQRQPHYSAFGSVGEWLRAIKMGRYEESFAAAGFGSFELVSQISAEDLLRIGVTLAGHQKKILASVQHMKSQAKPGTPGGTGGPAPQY
UniProt P29350, sequence (whole entry, unmodified, looked up): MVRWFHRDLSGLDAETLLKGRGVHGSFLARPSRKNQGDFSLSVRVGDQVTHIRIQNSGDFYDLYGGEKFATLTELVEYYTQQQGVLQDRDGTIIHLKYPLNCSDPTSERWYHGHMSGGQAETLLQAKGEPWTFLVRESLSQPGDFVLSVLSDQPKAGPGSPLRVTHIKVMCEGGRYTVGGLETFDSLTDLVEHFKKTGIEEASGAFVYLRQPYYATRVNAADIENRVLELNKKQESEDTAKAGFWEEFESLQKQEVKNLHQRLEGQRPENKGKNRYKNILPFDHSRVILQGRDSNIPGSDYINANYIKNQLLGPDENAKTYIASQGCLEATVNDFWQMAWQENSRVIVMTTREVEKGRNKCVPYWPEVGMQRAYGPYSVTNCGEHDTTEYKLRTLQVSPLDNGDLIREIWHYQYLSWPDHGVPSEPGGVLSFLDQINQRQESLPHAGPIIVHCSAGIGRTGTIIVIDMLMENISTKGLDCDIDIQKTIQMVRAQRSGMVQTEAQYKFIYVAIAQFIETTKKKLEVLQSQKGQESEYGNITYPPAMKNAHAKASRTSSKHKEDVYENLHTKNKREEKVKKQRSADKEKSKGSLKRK

| Molecule | partner | assay | test system | setting | Kd |
| --- | --- | --- | --- | --- | --- |
| {Cy5.5(3)}-TNYLFSPNGPIARAW (peptide; N-terminal Cy5.5; Cy5.5(3) = Cy5.5 fluorescent dye) | EPHB4 16-539 (Homo sapiens, UniProt P54760) | SPR | peptide | – | 1.27 nM |
| B1 (DBI) | CPT1A 381-469, Cy3 label (Rattus norvegicus, UniProt P32198) | FRET | – | 24 °C | 5 nM |
| ubiquitin (Saccharomyces cerevisiae, UniProt P0CG63) | RAD30 fragment (Saccharomyces cerevisiae) | SPR | – | pH 7.4, 25 °C, NaCl 150 mM | 440 ± 50 nM |
| B2 (Nlgn2 43-612) | MDGA1 ectodomain 22-920, TAMRA label (Homo sapiens, UniProt Q8NFP4-1) | fluorescence polarisation | – | pH 7.5, 25 °C, NaCl 25 mM, one-site total binding fit | 48 nM |
| B3 (FDX1) | FDXR (Bos taurus, UniProt P08165) | fluorescence titration | – | pH 7.4 | 19 ± 5 nM |
| B4 (CDH1 residues 1-108) | KLRG1 C-type lectin domain 75-186 (Homo sapiens, UniProt Q96E93) | SPR | – | equilibrium fit, Scatchard analysis | 200000 nM |
| NRP1 (Homo sapiens, UniProt O14786) | SEMA3F 740-779, N-terminal FITC (Homo sapiens) | fluorescence polarisation | – | 1.8 µM, pH 7.5, 23 °C, NaCl 100 mM, single site model | 2200 ± 200 nM |
| E-cadherin fragment, fluorescent label (Homo sapiens) (sequence not shown) | CTNNB1 fragment (Homo sapiens) | fluorescence polarization | – | 2 h, pH 7.4 | 80 nM |
| ETDKE[pY][pY]TVKD (JAK1 1029-1039; pY1034/pY1035; pY = N[C@@H](Cc1ccc(OP(=O)(O)O)cc1)C(=O)O) | PTPN6 243-530 Q252A/C453S (Homo sapiens, UniProt P29350) | ITC | peptide | pH 8.0, 25 °C, NaCl 100 mM | 600 ± 100 nM |
| LDYHFGLEEGEGIRDLFD (E2F1 409-426 (Homo sapiens, UniProt Q01094); sequence looked up) | RB1 55-787 del245-267/del582-642 (UniProt P06400) | ITC | – | pH 8.0, NaCl 100 mM, with: LxCxE peptide 100 µM | 70 nM |
| B5 (FGA/FGB/FGG 20-644) | ITGA2B/ITGB3 heterodimer (Homo sapiens) | radioligand binding | washed platelets | with: ADP, Ca2+ 2 mM, Mg2+ 1 mM, Zn2+ 50 µM | 665 nM |
| Crebbp fragment (Mus musculus) | AKT1 T308D/S473D (Homo sapiens, UniProt P31749) | intrinsic Trp fluorescence, fluorescence titration | – | pH 7.4, 25 °C, wild type | 4.3 ± 0.1 nM |
| ATRIP fragment | RPA1 1-120 (Homo sapiens, UniProt P27694) | competition with ATRIP probe, fluorescence polarisation | – | pH 7.5, NaCl 75 mM | 29000 nM |
| B6 (POL30) | RAD30 (Saccharomyces cerevisiae, UniProt Q04049) | single-molecule TIRF | – | calculated from kon, koff | 4.6 nM |
| B7 (GPR155 538-658) | DEPDC5/NPRL2/NPRL3 heterotrimer | MST | – | – | 12000 nM |
| B8 (adrenodoxin) | CYP11B2 (Homo sapiens, UniProt P19099) | MST | – | pH 7.4, 25 °C, oxidized, single-site model | 6 nM |
| RFC1/RFC2/RFC3/RFC4/RFC5 Rfc1 284-end (Saccharomyces cerevisiae) | POL30 1-258 C22S/C62S/C81S/S43C, MDCC on Cys43 (Saccharomyces cerevisiae, UniProt P15873) | fluorescence titration | – | with: ATP 0.5 mM | 7.7 nM and 9.6 nM |
| B9 (SRPK1) | SRSF1, about six phosphoserines (Homo sapiens, UniProt Q07955) | rapid quench flow single-turnover kinetics | – | pH 7.4, with: 32P-ATP 100 µM | 250 nM |
| GVVEVDAAV[pT]PEERHLSKMQQNGY (APP 659-682 (UniProt P05067-4); pT668; pT = C[C@@H](OP(=O)(O)O)[C@H](N)C(=O)O; sequence looked up) | PIN1 WW domain 1-50 (Homo sapiens, UniProt Q13526) | NMR titration | peptide | pH 6.9, 25 °C, trans isomer | 22400 nM |
| {FITC}-GFID[pS]D[pT]DVEEE-NH2 (MDC1 phosphopeptide; FITC N-terminus, pS5, pT7, C-terminal amide; FITC = O=C1OC2(c3ccc(O)cc3Oc3cc(O)ccc32)c2ccc(NC(=S)*)cc21; pS = N[C@@H](COP(=O)(O)O)C(=O)O; pT = C[C@@H](OP(=O)(O)O)[C@H](N)C(=O)O) | TOPBP1 641-746 S654A (Homo sapiens, UniProt Q92547) | fluorescence polarisation | peptide | NaCl 150 mM | 32000 ± 3000 nM |

Excerpt of the above:
| Molecule | partner | assay | test system | setting | Kd |
| --- | --- | --- | --- | --- | --- |
| RFC1/RFC2/RFC3/RFC4/RFC5 Rfc1 284-end (Saccharomyces cerevisiae) | POL30 1-258 C22S/C62S/C81S/S43C, MDCC on Cys43 (Saccharomyces cerevisiae, UniProt P15873) | fluorescence titration | – | with: ATP 0.5 mM | 7.7 nM and 9.6 nM |
| B9 (SRPK1) | SRSF1, about six phosphoserines (Homo sapiens, UniProt Q07955) | rapid quench flow single-turnover kinetics | – | pH 7.4, with: 32P-ATP 100 µM | 250 nM |
